# Assay results from different studies.
# Protein sequences, listed by entry. Tags and fused reporters are not part of them. Residues count along the entry.
# UniProt P09958, whole entry, looked up: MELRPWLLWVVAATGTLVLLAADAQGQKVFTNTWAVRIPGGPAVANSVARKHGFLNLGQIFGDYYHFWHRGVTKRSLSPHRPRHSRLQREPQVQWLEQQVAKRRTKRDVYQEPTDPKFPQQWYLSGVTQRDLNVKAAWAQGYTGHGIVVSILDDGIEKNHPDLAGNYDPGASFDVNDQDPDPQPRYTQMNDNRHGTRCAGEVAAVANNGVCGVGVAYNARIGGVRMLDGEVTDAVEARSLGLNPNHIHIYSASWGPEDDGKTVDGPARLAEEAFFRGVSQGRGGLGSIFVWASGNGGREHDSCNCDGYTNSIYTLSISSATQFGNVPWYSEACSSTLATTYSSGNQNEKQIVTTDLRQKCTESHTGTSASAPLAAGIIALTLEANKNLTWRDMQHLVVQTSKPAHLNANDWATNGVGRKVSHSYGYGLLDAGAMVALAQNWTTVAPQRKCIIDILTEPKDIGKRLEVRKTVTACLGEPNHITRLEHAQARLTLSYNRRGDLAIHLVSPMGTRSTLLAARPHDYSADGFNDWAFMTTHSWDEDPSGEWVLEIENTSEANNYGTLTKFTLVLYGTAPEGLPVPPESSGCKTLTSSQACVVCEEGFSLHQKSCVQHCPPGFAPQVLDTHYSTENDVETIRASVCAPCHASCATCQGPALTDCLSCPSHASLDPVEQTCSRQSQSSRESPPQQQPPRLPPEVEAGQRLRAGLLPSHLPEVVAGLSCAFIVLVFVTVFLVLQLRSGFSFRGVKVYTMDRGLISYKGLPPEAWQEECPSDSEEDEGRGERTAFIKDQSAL
# UniProt Q585F3, whole entry, looked up: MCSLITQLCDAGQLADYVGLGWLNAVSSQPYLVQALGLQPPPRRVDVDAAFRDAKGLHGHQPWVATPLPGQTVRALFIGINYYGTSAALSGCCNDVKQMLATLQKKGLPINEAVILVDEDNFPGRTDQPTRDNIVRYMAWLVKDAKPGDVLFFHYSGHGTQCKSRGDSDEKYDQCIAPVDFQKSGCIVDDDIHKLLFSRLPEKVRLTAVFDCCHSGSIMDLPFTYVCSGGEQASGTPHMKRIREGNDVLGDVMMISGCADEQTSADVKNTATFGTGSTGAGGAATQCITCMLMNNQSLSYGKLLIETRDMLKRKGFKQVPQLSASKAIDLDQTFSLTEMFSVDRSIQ
# UniProt P18031, 1-321 limits assumed: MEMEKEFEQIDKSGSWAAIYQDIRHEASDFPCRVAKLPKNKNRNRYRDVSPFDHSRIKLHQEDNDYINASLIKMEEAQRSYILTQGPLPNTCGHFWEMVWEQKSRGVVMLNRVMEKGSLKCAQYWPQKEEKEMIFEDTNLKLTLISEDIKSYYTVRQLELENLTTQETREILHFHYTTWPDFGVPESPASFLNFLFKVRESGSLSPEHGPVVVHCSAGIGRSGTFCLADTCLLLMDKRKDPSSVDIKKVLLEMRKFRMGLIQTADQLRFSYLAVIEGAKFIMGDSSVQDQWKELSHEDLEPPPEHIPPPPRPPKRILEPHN
# UniProt P18433, 224-802 limits assumed: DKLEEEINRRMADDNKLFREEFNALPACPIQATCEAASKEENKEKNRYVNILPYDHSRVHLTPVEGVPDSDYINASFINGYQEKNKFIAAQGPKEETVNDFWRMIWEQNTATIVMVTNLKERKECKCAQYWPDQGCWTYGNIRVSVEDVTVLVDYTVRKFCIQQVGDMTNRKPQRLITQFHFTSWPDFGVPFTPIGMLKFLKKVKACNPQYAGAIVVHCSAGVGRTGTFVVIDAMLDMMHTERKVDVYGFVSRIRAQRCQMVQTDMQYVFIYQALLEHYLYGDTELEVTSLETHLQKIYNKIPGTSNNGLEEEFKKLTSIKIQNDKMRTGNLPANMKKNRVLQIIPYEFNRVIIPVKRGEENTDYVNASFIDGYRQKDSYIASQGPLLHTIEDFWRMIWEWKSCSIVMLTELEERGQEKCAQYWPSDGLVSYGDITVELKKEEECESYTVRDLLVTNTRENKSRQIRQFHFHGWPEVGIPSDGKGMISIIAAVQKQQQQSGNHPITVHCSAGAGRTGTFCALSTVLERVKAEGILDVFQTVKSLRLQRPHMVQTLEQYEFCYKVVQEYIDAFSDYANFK
# UniProt P46098, 24-478 limits assumed: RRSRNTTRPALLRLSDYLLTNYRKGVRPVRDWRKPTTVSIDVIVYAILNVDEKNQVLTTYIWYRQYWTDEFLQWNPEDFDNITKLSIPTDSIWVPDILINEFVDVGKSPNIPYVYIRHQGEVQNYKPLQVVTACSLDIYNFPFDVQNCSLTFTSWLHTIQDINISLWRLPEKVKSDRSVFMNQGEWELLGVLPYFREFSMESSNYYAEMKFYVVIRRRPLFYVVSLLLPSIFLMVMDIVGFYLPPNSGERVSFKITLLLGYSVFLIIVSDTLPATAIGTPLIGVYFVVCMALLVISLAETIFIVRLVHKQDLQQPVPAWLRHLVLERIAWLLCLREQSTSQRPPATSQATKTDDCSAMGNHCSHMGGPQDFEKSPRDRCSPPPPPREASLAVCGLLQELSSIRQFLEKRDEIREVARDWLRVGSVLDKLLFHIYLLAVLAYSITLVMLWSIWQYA
# UniProt Q99816, whole entry, looked up: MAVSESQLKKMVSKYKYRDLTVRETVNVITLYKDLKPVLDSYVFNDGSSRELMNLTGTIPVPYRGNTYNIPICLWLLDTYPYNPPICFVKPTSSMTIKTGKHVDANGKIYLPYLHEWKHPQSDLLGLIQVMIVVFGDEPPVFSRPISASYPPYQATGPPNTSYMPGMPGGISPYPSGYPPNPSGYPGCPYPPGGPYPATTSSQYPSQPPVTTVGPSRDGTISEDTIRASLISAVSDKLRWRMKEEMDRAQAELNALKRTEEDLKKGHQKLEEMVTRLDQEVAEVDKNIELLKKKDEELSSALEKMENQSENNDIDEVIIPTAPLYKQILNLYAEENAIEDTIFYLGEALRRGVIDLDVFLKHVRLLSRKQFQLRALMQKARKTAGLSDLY
# UniProt Q66478, 863-1012 limits assumed: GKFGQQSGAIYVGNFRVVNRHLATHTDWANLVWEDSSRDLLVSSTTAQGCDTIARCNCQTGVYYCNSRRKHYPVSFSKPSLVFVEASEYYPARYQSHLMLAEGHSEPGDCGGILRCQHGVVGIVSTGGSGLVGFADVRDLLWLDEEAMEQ
# Each line is one published result; not all experiments were run side by side. Several values in a cell are separate wells, animals, samples, runs or records. Numbers after ± are the reported error.
# HLA class I histocompatibility antigen, A alpha chain allele A*80:01: HLA class I histocompatibility antigen, A alpha chain, allele A*80:01 (Homo sapiens, UniProt P04439)
# FURIN: Furin (FURIN, Homo sapiens, UniProt P09958)
# MCA2: Metacaspase-2 (MCA2, Trypanosoma brucei brucei, UniProt Q585F3)
# PTPN1: Tyrosine-protein phosphatase non-receptor type 1 (PTPN1, Homo sapiens, UniProt P18031)
SMILES,target,assay,system,setting,scale,quantity,value
CC(C)C[C@H](NC(=O)[C@@H](N)C(C)C)C(=O)N[C@@H](CCCNC(=N)N)C(=O)N[C@@H](C)C(=O)N[C@@H](CS)C(=O)N[C@@H](Cc1c[nH]c2ccccc12)C(=O)N[C@@H](CC(N)=O)C(=O)N[C@@H](CCC(=O)O)C(=O)N[C@@H](CCCCN)C(=O)O,"HLA class I histocompatibility antigen, A alpha chain allele A*80:01",,,,direction not given,z-score,0.38
CC(C)[C@H](NC(=O)[C@H](Cc1c[nH]cn1)NC(=O)c1ccccc1N)C(=O)N[C@@H](CCCNC(=N)N)C(=O)N[C@@H](CCCCN)C(=O)N[C@@H](CCCNC(=N)N)C(=O)N[C@@H](CCCNC(=N)N)C(=O)N[C@@H](C)C(=O)N[C@@H](CC(=O)O)C(=O)N1CCC[C@H]1C(=O)N[C@@H](CC(=O)O)C(=O)N[C@@H](CCC(N)=O)C(=O)NCCNc1ccc([N+](=O)[O-])cc1[N+](=O)[O-],FURIN,substrate,,pH 7,,Km,9.1 µM
CC(C)C[C@H](NC(=O)[C@H](CC(C)C)NC(=O)[C@H](CCCNC(=N)N)NC(=O)[C@H](Cc1ccccc1)NC(=O)[C@@H](NC(=O)[C@@H](N)CCC(=O)O)[C@@H](C)O)C(=O)N[C@@H](CCCNC(=N)N)C(=O)N[C@@H](CO)C(=O)N[C@@H](Cc1ccccc1)C(=O)O,"HLA class I histocompatibility antigen, A alpha chain, allele A*26:03 (Homo sapiens, UniProt P04439)",,,,direction not given,z-score,-1.58
CC[C@H](C)[C@H](NC(=O)[C@H](CO)NC(=O)[C@H](CCCNC(=N)N)NC(=O)[C@H](C)NC(=O)[C@H](CCCCN)NC(=O)c1ccccc1N)C(=O)N[C@@H](C)C(=O)N[C@@H](CCC(N)=O)C(=O)NCCNc1ccc([N+](=O)[O-])cc1[N+](=O)[O-],MCA2,"enzyme activity, substrate, FRET hydrolysis",Trypanosoma brucei,pH 7.4,,Km,0.12 µM
CC(=O)N[C@@H](CO)C(=O)N[C@@H](C)C(=O)N[C@@H](CO)C(=O)N[C@@H](C)C(=O)N[C@@H](CO)C(=O)N[C@@H](Cc1ccc(OP(=O)(O)O)cc1)C(=O)N[C@@H](CO)C(=O)N[C@@H](C)C(=O)N[C@@H](CO)C(=O)N[C@@H](C)C(N)=O,"Receptor-type tyrosine-protein phosphatase alpha, residues 224-802 (Homo sapiens, UniProt P18433)","phosphatase activity, substrate",,"pH 7.4, added: phosphotyrosine peptide",,kcat,23 ± 4 s⁻¹
CC(C)C[C@H](NC(=O)[C@H](CC(N)=O)NC(=O)c1ccccc1N)C(=O)N[C@@H](CCCNC(=N)N)C(=O)N[C@@H](CCCNC(=N)N)C(=O)N[C@@H](CCCNC(=N)N)C(=O)N[C@@H](CCCNC(=N)N)C(=O)N[C@@H](CC(=O)O)C(=O)N[C@@H](CC(C)C)C(=O)N[C@H](C(=O)N[C@@H](CC(=O)O)C(=O)N[C@@H](CCC(N)=O)C(=O)NCCNc1ccc([N+](=O)[O-])cc1[N+](=O)[O-])C(C)C,FURIN,substrate,,pH 7,,kcat,1.8 s⁻¹
CC(=O)N[C@@H](C)C(=O)N[C@@H](CO)C(=O)N[C@@H](CO)C(=O)N[C@@H](CC(=O)O)C(=O)N[C@@H](CCC(=O)O)C(=O)N[C@@H](Cc1ccc(OP(=O)(O)O)cc1)C(=O)N[C@@H](C)C(=O)N[C@@H](C)C(N)=O,PTPN1,substrate,,"pH 7.4, catalytic domain",,kcat,31 ± 1 s⁻¹
CC(C)C[C@H](NC(=O)[C@H](C)NC(=O)[C@H](CCCNC(=N)N)NC(=O)[C@H](CCCCN)NC(=O)[C@H](CCCCN)NC(=O)[C@H](CCCNC(=N)N)NC(=O)[C@H](CCCNC(=N)N)NC(=O)[C@H](CC(N)=O)NC(=O)c1ccccc1N)C(=O)N[C@@H](CC(=O)O)C(=O)N[C@@H](C)C(=O)N[C@@H](CCC(N)=O)C(=O)NCCNc1ccc([N+](=O)[O-])cc1[N+](=O)[O-],FURIN,substrate,,pH 7,,kcat,1.5 s⁻¹
CC(=O)N[C@@H](C)C(=O)N[C@H](C(=O)N[C@@H](C)C(=O)N[C@@H](CC(=O)O)C(=O)N[C@H](C(=O)N[C@@H](Cc1ccc(OP(=O)(O)O)cc1)C(=O)N[C@@H](C)C(=O)N[C@@H](C)C(N)=O)C(C)C)[C@@H](C)O,PTPN1,"substrate, continuous UV",,pH 7.4,,kcat/Km,2.5e+06 M⁻¹ s⁻¹
C[C@H](NC(=O)[C@H](CO)NC(=O)[C@H](CO)NC(=O)[C@H](CCCNC(=N)N)NC(=O)[C@H](CCCCN)NC(=O)[C@H](CCCCN)NC(=O)c1ccccc1N)C(=O)N[C@@H](CCC(N)=O)C(=O)NCCNc1ccc([N+](=O)[O-])cc1[N+](=O)[O-],MCA2,"enzyme activity, substrate, FRET hydrolysis",Trypanosoma brucei,pH 7.4,,Km,0.29 µM
COc1cc(NCCC2CCCCN2)c2ncccc2c1 (centres unmarked),"HTR3A (Homo sapiens, UniProt P46098)",calcium signal,HEK,"10.3 µM, added: 5-HT 1 µM",,inhibition,54 ± 4.4%
C[C@H](NC(=O)[C@H](CO)NC(=O)CNC(=O)[C@H](CCCNC(=N)N)NC(=O)[C@H](C)NC(=O)[C@H](CCCCN)NC(=O)c1ccccc1N)C(=O)N[C@@H](CCC(N)=O)C(=O)NCCNc1ccc([N+](=O)[O-])cc1[N+](=O)[O-],MCA2,"enzyme activity, substrate, FRET hydrolysis",Trypanosoma brucei,pH 7.4,,Km,2.2 µM
CC(=O)N[C@@H](C)C(=O)N[C@@H](Cc1ccc(O)cc1)C(=O)N[C@H](C(=O)N[C@@H](CCC(=O)O)C(=O)N[C@@H](Cc1ccc(OP(=O)(O)O)cc1)C(=O)N[C@H](C(=O)N[C@@H](Cc1ccc(OP(=O)(O)O)cc1)C(=O)N[C@@H](C)C(=O)N[C@@H](C)C(N)=O)[C@@H](C)O)[C@@H](C)O,PTPN1,"substrate, continuous UV",,pH 7.4,,kcat/Km,6e+06 M⁻¹ s⁻¹
CC(C)[C@H](NC(=O)[C@H](C)NC(=O)[C@H](C)NC(=O)[C@@H](N)Cc1c[nH]cn1)C(=O)N[C@@H](CCCNC(=N)N)C(=O)N[C@@H](CCCNC(=N)N)C(=O)N[C@@H](CC(N)=O)C(=O)N[C@@H](C)C(=O)N[C@@H](Cc1ccccc1)C(=O)O,"HLA class I histocompatibility antigen, A alpha chain allele A*80:01",,,,direction not given,z-score,0.38
N=C(N)NCCC[C@H](NC(=O)c1ccccc1N)C(=O)N[C@@H](Cc1c[nH]cn1)C(=O)N[C@@H](CCCNC(=N)N)C(=O)N[C@@H](CCC(N)=O)C(=O)N1CCC[C@H]1C(=O)N[C@@H](CCCNC(=N)N)C(=O)NCC(=O)N[C@@H](Cc1c[nH]c2ccccc12)C(=O)N[C@@H](CCC(=O)O)C(=O)N[C@@H](CCC(N)=O)C(=O)N[C@@H](CCC(N)=O)C(=O)NCCNc1ccc([N+](=O)[O-])cc1[N+](=O)[O-],FURIN,substrate,,pH 7,,Km,11.8 µM
CC(C)[C@H](NC(=O)[C@H](CCC(N)=O)NC(=O)[C@H](CC(=O)O)NC(=O)[C@H](Cc1c[nH]c2ccccc12)NC(=O)[C@@H](N)Cc1ccc(O)cc1)C(=O)N[C@H](C(=O)N[C@@H](Cc1ccccc1)C(=O)N[C@@H](Cc1ccccc1)C(=O)N[C@@H](Cc1ccc(O)cc1)C(=O)O)[C@@H](C)O,"HLA class I histocompatibility antigen, A alpha chain allele A*80:01",,,,direction not given,z-score,-2.3
C[C@@H](O)[C@H](NC(=O)[C@H](CO)NC(=O)[C@H](CCCNC(=N)N)NC(=O)[C@H](CCCCN)NC(=O)[C@@H](NC(=O)[C@H](CCCNC(=N)N)NC(=O)[C@H](CC(N)=O)NC(=O)[C@H](Cc1c[nH]cn1)NC(=O)c1ccccc1N)[C@@H](C)O)C(=O)N[C@@H](CC(=O)O)C(=O)NCC(=O)N[C@@H](CCC(N)=O)C(=O)NCCNc1ccc([N+](=O)[O-])cc1[N+](=O)[O-],FURIN,substrate,,,reference: with KCl over without KCl,kcat/Km ratio,43 and 43.2
CC(=O)N[C@@H](C)C(=O)N[C@@H](Cc1c[nH]c2ccccc12)C(=O)N[C@@H](CO)C(=O)N[C@@H](Cc1ccc(OP(=O)(O)O)cc1)C(=O)N[C@@H](C)C(=O)N[C@@H](CC(=O)O)C(=O)N[C@@H](Cc1ccc(OP(=O)(O)O)cc1)C(=O)N[C@@H](C)C(=O)N[C@@H](C)C(N)=O,PTPN1,substrate,,,,kcat/KM,2.35e+07 M⁻¹ s⁻¹
CC(C)C[C@H](NC(=O)[C@H](Cc1ccc(O)cc1)NC(=O)[C@@H]1CCCN1C(=O)[C@H](CCC(N)=O)NC(=O)[C@H](CCC(N)=O)NC(=O)[C@H](CO)NC(=O)[C@@H]1CCCN1C(=O)[C@@H](N)Cc1ccccc1)C(=O)O,"HLA class I histocompatibility antigen, B alpha chain, allele B*51:01 (Homo sapiens, UniProt P01889)",,,,direction not given,z-score,-3.81
CC[C@H](C)[C@H](NC(=O)CNC(=O)[C@@H](NC(=O)[C@H](C)NC(=O)[C@H](CCCNC(=N)N)NC(=O)[C@H](CCCCN)NC(=O)[C@H](CCC(=O)O)NC(=O)[C@H](CCCNC(=N)N)NC(=O)[C@H](CCC(N)=O)NC(=O)[C@@H](NC(=O)c1ccccc1N)C(C)C)C(C)C)C(=O)N[C@@H](CCC(N)=O)C(=O)NCCNc1ccc([N+](=O)[O-])cc1[N+](=O)[O-],FURIN,substrate,,pH 7,,kcat,3.9 s⁻¹
CC(C)[C@H](NC(=O)[C@H](CS)NC(=O)[C@@H](NC(=O)[C@@H](NC(=O)[C@@H](N)CCCCN)[C@@H](C)O)C(C)C)C(=O)N[C@@H](CCC(N)=O)C(=O)N[C@@H](C)C(=O)N[C@H](C(=O)N[C@@H](CCCCN)C(=O)O)[C@@H](C)O,"HLA class I histocompatibility antigen, A alpha chain allele A*80:01",,,,direction not given,z-score,0.38
CC(C)[C@H](NC(=O)[C@H](CCCNC(=N)N)NC(=O)CN)C(=O)N[C@H](C(=O)N[C@@H](CCC(=O)O)C(=O)N1CCC[C@H]1C(=O)N[C@@H](CO)C(=O)N[C@@H](C)C(=O)N1CCC[C@H]1C(=O)N1CCC[C@H]1C(=O)N[C@@H](Cc1c[nH]c2ccccc12)C(=O)N[C@@H](CCC(=O)O)C(=O)NCC(=O)N1CCC[C@H]1C(=O)O)C(C)C,"Tumor susceptibility gene 101 protein, UEV domain (Homo sapiens, UniProt Q99816)",thermal stability,,"800 µM, 8% DMSO",,Tm,66.7 ± 0.3 °C
CC[C@H](C)[C@H](NC(=O)[C@H](CCCCN)NC(=O)[C@H](CC(=O)O)NC(=O)[C@H](CCCNC(=N)N)NC(=O)c1ccc(N=Nc2ccc(N(C)C)cc2)cc1)C(=O)N[C@H](C(=O)N[C@H](C(=O)N[C@@H](CC(C)C)C(=O)NCC(=O)N[C@@H](CCCCN)C(=O)N[C@@H](Cc1ccccc1)C(=O)NCC(=O)N[C@@H](CCC(N)=O)C(=O)N[C@@H](CC(=O)O)C(=O)N[C@@H](CCC(=O)NCCNc1cccc2c(S(=O)(=O)O)cccc12)C(N)=O)[C@@H](C)O)[C@@H](C)O,"Genome polyprotein, 2A protease (Enterovirus A71, UniProt Q66478)","protease activity, substrate, FRET",enterovirus 71,"pH 7.4, 30 °C",,Km,21.3 ± 2.4 µM

# Repeated from above:
SMILES,target,assay,system,setting,scale,quantity,value
CC(C)[C@H](NC(=O)[C@H](CS)NC(=O)[C@@H](NC(=O)[C@@H](NC(=O)[C@@H](N)CCCCN)[C@@H](C)O)C(C)C)C(=O)N[C@@H](CCC(N)=O)C(=O)N[C@@H](C)C(=O)N[C@H](C(=O)N[C@@H](CCCCN)C(=O)O)[C@@H](C)O,"HLA class I histocompatibility antigen, A alpha chain allele A*80:01",,,,direction not given,z-score,0.38
CC(=O)N[C@@H](C)C(=O)N[C@H](C(=O)N[C@@H](C)C(=O)N[C@@H](CC(=O)O)C(=O)N[C@H](C(=O)N[C@@H](Cc1ccc(OP(=O)(O)O)cc1)C(=O)N[C@@H](C)C(=O)N[C@@H](C)C(N)=O)C(C)C)[C@@H](C)O,PTPN1,"substrate, continuous UV",,pH 7.4,,kcat/Km,2.5e+06 M⁻¹ s⁻¹
CC(C)C[C@H](NC(=O)[C@H](CC(N)=O)NC(=O)c1ccccc1N)C(=O)N[C@@H](CCCNC(=N)N)C(=O)N[C@@H](CCCNC(=N)N)C(=O)N[C@@H](CCCNC(=N)N)C(=O)N[C@@H](CCCNC(=N)N)C(=O)N[C@@H](CC(=O)O)C(=O)N[C@@H](CC(C)C)C(=O)N[C@H](C(=O)N[C@@H](CC(=O)O)C(=O)N[C@@H](CCC(N)=O)C(=O)NCCNc1ccc([N+](=O)[O-])cc1[N+](=O)[O-])C(C)C,FURIN,substrate,,pH 7,,kcat,1.8 s⁻¹
